Assay results collected from several papers.
Every numbered part comes from another study and shows a few of its results, in no order.

Set 1 — technique: EMSA with sequencing; form: double-stranded DNA, one strand shown; sample: in vitro; tested at: 10 and 20 nM; reference: negative control set to 0; direction: higher = stronger binding
Target: Hepatocyte nuclear factor 3-alpha (Foxa1, Mus musculus, UniProt P35582, residues 1-468, full length assumed)
Setting: whole designed probe, mean of two concentrations, ends assumed
Target sequence (chain): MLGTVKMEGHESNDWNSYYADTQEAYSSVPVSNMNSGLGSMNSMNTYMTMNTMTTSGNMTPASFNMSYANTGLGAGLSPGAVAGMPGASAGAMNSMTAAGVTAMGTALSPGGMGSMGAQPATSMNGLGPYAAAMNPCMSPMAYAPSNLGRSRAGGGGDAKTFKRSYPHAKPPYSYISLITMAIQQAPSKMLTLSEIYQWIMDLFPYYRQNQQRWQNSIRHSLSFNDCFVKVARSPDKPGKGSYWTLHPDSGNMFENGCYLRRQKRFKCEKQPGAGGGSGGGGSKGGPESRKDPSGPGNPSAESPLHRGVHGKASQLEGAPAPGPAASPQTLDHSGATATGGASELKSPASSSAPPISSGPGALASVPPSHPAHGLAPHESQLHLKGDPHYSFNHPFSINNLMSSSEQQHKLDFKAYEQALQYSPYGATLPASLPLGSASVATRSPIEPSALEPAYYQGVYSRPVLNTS
For `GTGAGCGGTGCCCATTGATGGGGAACCTTGGGAGGGTATCGCTTTAGTCTTGCCCACATGGCTTGGAACAGGTTATTCTGTAGCATGCCAAGGACCTCAGGGCGGGGCCCTTTATGGATGTTTATTTTGGCTTGGGTACCCTTTGTGTCTAATGCAAGGTTCCTGCTCCTCTCATGCCCCCAGTGCGGGATGGAGGTAGGCACCTATTCACAGACTCTCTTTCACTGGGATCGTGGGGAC`, “normalised bound fraction” read 0.238 ratio.
For `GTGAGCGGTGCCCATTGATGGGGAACAGGTGGGGTAAGGGATGTGTACTCTTTCAAGGAGTGGGAGAATTATTCTAGCGAATGTTTGTGTTGTCCCAGTTCTGTTTACAAAGCCTCGTCATGTTTACAGATGGCTGCGCAATTCATTACCTCATTTAACTCTCATGTACCTCCTCTGAGGGAGTAAGAGCTGTTACAGCCAAGTTTAGGTCAGTAAATATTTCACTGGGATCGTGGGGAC`, “normalised bound fraction” read 0.379 ratio.
For `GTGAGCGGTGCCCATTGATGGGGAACTATCTGAGAAGTCTGATCCAGAGTTGATGAGCAGATAAAAAATGTTGAAAGGATCCACGCTCTTTCCATCTCTCTGCTTAGTCATCCTCACTGTGTTTGCTTTTCTTCAGTTTGTTACTTTTTTTTTTTTTTGAGATCGAGTTTCGCTCTTGTTACCCAGGCTGGAGTGCAATGGGGCGATCTCTGCTCACTGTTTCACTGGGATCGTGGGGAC`, “normalised bound fraction” read 0.306 ratio.
Under “normalised bound fraction”, `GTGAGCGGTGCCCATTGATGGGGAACATTTGTGTTACTTCCTAATTTGGGCAATTATACAATTGCTGTGAACATCTGAGTATAGGTTTTCATGTAAACAGAATTTTTCTTTCATCTAGGGTAATTTCCTAAGTGTGGAGTTGCTGAGTCATATGATAAATGTATGGTTAATAGTATAAGAAGCTGCCAAACTTTTGTGCATAGTGGACAGACCGTTTTATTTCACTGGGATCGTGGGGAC` is recorded as 0.0526 ratio.
`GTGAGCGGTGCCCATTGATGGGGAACAAACAGAGAACTGACCTTGTGGGAAATTGATATTCTTTAGGAATGGGAATGTCTAGGCAAATGGACAGAGATTACAAAGAGATGGAGCAATAGGCAAATAAGCAAATATTTGGCAAACAAGGAGTAGTAAGGACCACGGGTGGCCACCCTCTCCACACATACGCTCACTCTCACCGAGGCATACACTTGCTCATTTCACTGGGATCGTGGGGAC` — result for “normalised bound fraction”: 0.278 ratio.

Set 2 — technique: protein-binding microarray; form: double-stranded DNA, one strand shown; sample: in vitro; tested at: 940 nM top; setting: 60-bp whole probe; together with: salmon DNA 0.4 mg/ml; reference: random background probes; direction: higher = stronger binding; all sequences stand within: GCCTAGCAC … GTCTTGATTCGCTTGACGCTGCTG
Target: Interferon regulatory factor 5, full length, phosphomimetic (IRF5, Homo sapiens, UniProt Q13568-2, residues 1-514, S451D/S453D/S456D/S462D)
For `TACGGTATCGACACTGGGGACGTGCTA`, “fitted relative affinity” read 3.92 z-score.
`AGCTACTGAGTGGCAACACAGTGCTAG` — result for “fitted relative affinity”: -0.677 z-score.
`TCAAATTTTAGTAACACACTGTGCTAG` — result for “fitted relative affinity”: -0.144 z-score.
Under “fitted relative affinity”, `TCAACCATCATCCTCACACTGTGCTAG` is recorded as 0.825 z-score.
Under “fitted relative affinity”, `CTAGGTTTCCTTTTCCTTTAGTGCTAG` is recorded as 1.41 z-score.
`GAACATACTAATTTCCATTTGTGCTAG`: “fitted relative affinity” 0.639 z-score.
`GACGTTTTCGGTTCCGGGACGTGCTAG`: “fitted relative affinity” 3.72 z-score.
For `GACGGTCTCCTTTTCCGGACGTGCTAG`, “fitted relative affinity” read 1 z-score.
`GACGAACTGAGACTGGATACGTGCTAG`: “fitted relative affinity” -0.345 z-score.
`GACGATCTCGGACTGGAGACGTGCTAG`: “fitted relative affinity” -0.131 z-score.
Under “fitted relative affinity”, `GACCGTTTCCTTATCCTGACGTGCTAG` is recorded as 1.27 z-score.
Under “fitted relative affinity”, `GACGGTTTCCTTCGCCTGACGTGCTAG` is recorded as 1.31 z-score.
`TTGTAAATCTTTTTCCCTATGTGCTAG`: “fitted relative affinity” 0.537 z-score.
`TTAGGTAGCGGTTTCGGTTAGTGCTAG` — result for “fitted relative affinity”: 6.93 z-score.
`GACGCACTGGACACTGGGGACGTGCTA`: “fitted relative affinity” -0.371 z-score.
`CACGGTTTCGGTCTCGGGACGTGCTAG` — result for “fitted relative affinity”: 11.8 z-score.
Under “fitted relative affinity”, `GACGGACTGGGAATCGGGACGTGCTAG` is recorded as -0.529 z-score.
`TTAGGTCTCGCACTGGGTTAGTGCTAG`: “fitted relative affinity” 0.401 z-score.
`GACGGACTGGGGTATCAGGACGTGCTA` — result for “fitted relative affinity”: 0.0859 z-score.

Set 3 — technique: RNA Bind-n-Seq; form: RNA; sample: in vitro; tested at: 200 nM; setting: whole 134-nt RNA, ends assumed; together with: 150 mM LiCl; reference: input library; direction: higher = stronger binding; all molecules: 7-deaza-guanosine replaces G
Target: Fragile X messenger ribonucleoprotein 1, C-terminal low-complexity region (Fmr1, Mus musculus, UniProt P35922)
With `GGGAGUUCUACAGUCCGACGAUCCAAGUCCUGUGCUACACAUCGUAUGUACCGAAUCGGGUUUUUGGGAAAGGGAGGGAAAGUAUUAUGUUACGCCGUUCGGAUCUGCACUUCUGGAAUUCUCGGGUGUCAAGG` the log2 enrichment was -0.441.
With `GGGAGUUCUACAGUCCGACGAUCGUCCUGUGCUACACAUCGUAUGUACCGAAUCGGGAAAAAGGGUUUUUGGGUUUUUGGGAAAGUAUUAUGUUACGCCGUUCGGAUCUGCACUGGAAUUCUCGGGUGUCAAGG` the log2 enrichment was -2.59.
With `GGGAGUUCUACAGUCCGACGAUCCAAGUCCUGUGCUACACAUCGUAUGUACCGAAUCGGAAAGGUUUUUGGUUUUUGGAAAGUAUUAUGUUACGCCGUUCGGAUCUGCACUUCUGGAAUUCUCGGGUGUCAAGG` the log2 enrichment was -2.16.
`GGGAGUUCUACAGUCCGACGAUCUCAAGUCCUGUGCUACACAUCGUAUGUACCGAAUCGGAAAGGUGGAAAAAAAGGAAAGUAUUAUGUUACGCCGUUCGGAUCUGCACUUCCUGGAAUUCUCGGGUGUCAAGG` has a log2 enrichment of -0.502.
`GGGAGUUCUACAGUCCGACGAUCUGUGCUACACAUCGUAUGUACCGAAUCGGGGAAAAAAAGGGGAAAAAAAGGAAAAAAAGGGGAAAGUAUUAUGUUACGCCGUUCGGAUCUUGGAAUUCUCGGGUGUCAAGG` has a log2 enrichment of 0.673.
`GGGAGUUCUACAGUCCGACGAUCCUCAAGUCCUGUGCUACACAUCGUAUGUACCGAAUCGGGGAGGAGGGGAGGGGAAAGUAUUAUGUUACGCCGUUCGGAUCUGCACUUCCAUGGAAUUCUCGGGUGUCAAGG` has a log2 enrichment of -0.61.
With `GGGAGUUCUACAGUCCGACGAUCAAGUCCUGUGCUACACAUCGUAUGUACCGAAUCGGGGUGGGGAAAGGGGUUUGGGGAAAGUAUUAUGUUACGCCGUUCGGAUCUGCACUUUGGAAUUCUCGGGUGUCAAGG` the log2 enrichment was -1.48.
The log2 enrichment of `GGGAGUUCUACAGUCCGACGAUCCUGUGCUACACAUCGUAUGUACCGAAUCGGGCCCCCCCGGGCCCCCCCGGGGCCCCCCCGGGAAAGUAUUAUGUUACGCCGUUCGGAUCUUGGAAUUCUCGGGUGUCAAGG` is reported as -0.94.

Set 4 — technique: RNA Bind-n-Seq; form: RNA; sample: in vitro; tested at: 365 nM; reference: no-protein control; direction: higher = stronger binding
Target: RNA binding protein fox-1 homolog 2, RRM domain, GST-SBP tag (RBFOX2, Homo sapiens, UniProt O43251-10, residues 100-194)
Setting: natural RNA segment, single round, ends assumed
Target sequence (chain): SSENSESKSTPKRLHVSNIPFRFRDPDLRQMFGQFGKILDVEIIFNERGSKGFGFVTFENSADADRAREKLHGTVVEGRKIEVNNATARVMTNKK
For `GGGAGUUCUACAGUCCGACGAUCCUGCCGUUAAGCCAAAACAAAAGCUGUGAACAUAGGUGCUUGAGAGAAUGCGUGUUGACAGGAAAGUGACUGAUUUACAGACCCAAGUCUUUGUCUCAUGAAACUACCAAUGGAAUUCUCGGGUGCCAA`, “RBNS enrichment (R)” read 0.979.
For `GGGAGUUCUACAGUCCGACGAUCCAGAUCAGCAGUCACCCAUCGCUUAGCAUAGAAAUCCCAAAACCUCCAGCCCGGGAACACUAUAAGCUUCGACCAUUCAGGAAUCUGCCCUGCACUUUGCAUAUCUGUAUUGGAAUUCUCGGGUGCCAA`, “RBNS enrichment (R)” read 2.18.
Under “RBNS enrichment (R)”, `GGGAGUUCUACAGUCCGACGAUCCUGCAGCCCCACUUCUGUUUCCCUGGAGUCUCCCAAUGGAUCAUUCAGGAGUGUCCUAUGUGAGAAUUGAGCCAAGGAAAAUACUCAUGCAACCAGCCUGAGUCGCGGUGUGGAAUUCUCGGGUGCCAA` is recorded as 0.68.
Under “RBNS enrichment (R)”, `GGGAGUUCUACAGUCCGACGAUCAUAGCCAAAAGUCCAUACACCCAUUGCCAGGCACUCCCAUAAGUCACAUGUGAAUUUUCUCUACACAUAGCAAACAUAACUUCAUUUGGCUCUAAGUGUCUGAGGAAUGGUGGAAUUCUCGGGUGCCAA` is recorded as 0.548.
Under “RBNS enrichment (R)”, `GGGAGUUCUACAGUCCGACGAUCAGCUAAAGAAAAACUGCAUAUGCAAAUCAUACCGUAUUCAUUUUUUUAUUUAACUUGGGGAUGGAAUGGGGAUAGCAUACAUUUUAUUUGUACAAUAUUUAACAAUCACUUGGAAUUCUCGGGUGCCAA` is recorded as 0.351.
Under “RBNS enrichment (R)”, `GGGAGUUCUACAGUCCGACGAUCUACUUGCUUCUGUCUGACACCUUCUCCCUGUUGGCCUGAAGGGAGCUUAGAAUGCAGCCCUACCUGGAGAUAGUGCGGGCACCUGUGGCCAAGUGGAGCAGAGGUGGACAUGGAAUUCUCGGGUGCCAA` is recorded as 3.06.
Under “RBNS enrichment (R)”, `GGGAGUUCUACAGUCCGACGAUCGUUUGUACGCAGUUCAAUUUCAAAAUUGCUAAAAUGUGUUUGAGCUUUAGACUAUAACAUUUGUUGUAAUAAUUGCUAGGUUGAAGUUCAACAUGUAAAAAAAGGGGGCAUGGAAUUCUCGGGUGCCAA` is recorded as 1.06.
Under “RBNS enrichment (R)”, `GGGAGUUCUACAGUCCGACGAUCGGCCCUCGGGCCACUUGGUGGAAGGACCCUAAGCACACUGUUCAUGAAGAACACAGGGAUAAAGCAAAGGCCAUCAUGCCGCAGACUGGAGCCACCUGGAAGCCACUCCAUGGAAUUCUCGGGUGCCAA` is recorded as 0.377.

For quick reference, copied from above (set 2):
`GAACATACTAATTTCCATTTGTGCTAG`: “fitted relative affinity” 0.639 z-score.
`GACGTTTTCGGTTCCGGGACGTGCTAG`: “fitted relative affinity” 3.72 z-score.
For `GACGGTCTCCTTTTCCGGACGTGCTAG`, “fitted relative affinity” read 1 z-score.
`GACGAACTGAGACTGGATACGTGCTAG`: “fitted relative affinity” -0.345 z-score.
`GACGATCTCGGACTGGAGACGTGCTAG`: “fitted relative affinity” -0.131 z-score.
Under “fitted relative affinity”, `GACCGTTTCCTTATCCTGACGTGCTAG` is recorded as 1.27 z-score.
